Measured values gathered from unrelated publications.
Each line is one published result; not all experiments were run side by side.
Cell line: NCI-H460
Effect on: cell growth or viability

| SMILES | technique | time | IC50 |
| --- | --- | --- | --- |
| CCC(=[NH+][Pt-2]1([OH])([OH])([Cl])[NH]CCC[NH]1)N(C)CCNc1c2ccccc2[nH+]c2ccccc12.O=[N+]([O-])O.O=[N+]([O-])O | MTS | 72 h | 21.3 nM |
| Oc1ccc(C#Cc2c(O)ccc3c2C(c2ccc(O)cc2)(c2ccc(O)cc2)c2cc(O)ccc2-3)cc1 | MTT | 48 h | 14300 nM |
| Cc1ccc([N+](=O)[O-])cc1S(=O)(=O)N(C)/N=C/c1cnc2ccc(Br)cn12 |  |  | 10 nM |
| CC(=O)OC[C@H]1O[C@@H](Oc2ccc(C#[C][Pt+])cc2)[C@H](OC(C)=O)[C@@H](OC(C)=O)[C@@H]1OC(C)=O.O=S(=O)([O-])C(F)(F)F.c1ccc(-c2cccc(-c3ccccn3)n2)nc1 |  | 24 h | > 100000 nM |
| CCCCCCCCCCCCCCCCCC(=O)[O][Pt-2]1([OH])([Cl])([NH+]=C(CC)N(C)CCNc2c3ccccc3[nH+]c3ccccc23)[NH]CCC[NH]1.O=[N+]([O-])O.O=[N+]([O-])O | MTS | 72 h | 35.6 nM |
| CC(C)c1ccc(N(C)c2ccc3c(c2)OCC[C@H]3CNc2cnccc2C(=O)O)cc1 | ATP luminescence | 7 days | 11.6 nM |
| CCOc1cncc(-c2ccc(NC(=O)C3(c4ccnc(NS(=O)(=O)C5CC5)n4)CCOCC3)nc2)n1 | ATP luminescence | 72 h | 1460 nM |
| CO[C@@H]1[C@@H](OC(=O)c2ccc(C)[nH]2)[C@@H](O)[C@H](Oc2ccc3c(O)c(NC(=O)c4c[nH]c(C(=O)Nc5c(O)c6ccc(O[C@@H]7OC(C)(C)[C@H](OC)[C@@H](OC(=O)c8ccc(C)[nH]8)[C@H]7O)c(C)c6oc5=O)c4C)c(=O)oc3c2C)OC1(C)C | ATP luminescence | 72 h | ~3700 nM |
| Oc1ccc(C#Cc2cccc3c2C(c2ccc(O)cc2)(c2ccc(O)cc2)c2cc(O)ccc2-3)cc1 | MTT | 48 h | 11600 nM |
| CCC(=[NH+][Pt-2]1([Cl])([O]C(C)=O)([O]C(C)=O)[NH]CCC[NH]1)N(C)CCNc1c2ccccc2[nH+]c2ccccc12.O=[N+]([O-])O.O=[N+]([O-])O | MTS | 72 h | 11.1 nM |
| Cc1ccc2c(c1C#Cc1ccc(O)cc1)C(c1ccc(O)cc1)(c1ccc(O)cc1)c1cc(O)ccc1-2 | MTT | 48 h | 10600 nM |
| COc1cc(S(=O)(=O)Oc2ccc3[nH]c(C)cc3c2F)cc(OC)c1OC |  | 72 h | 8.34 nM |

A few entries again:
| SMILES | technique | time | IC50 |
| --- | --- | --- | --- |
| Cc1ccc([N+](=O)[O-])cc1S(=O)(=O)N(C)/N=C/c1cnc2ccc(Br)cn12 |  |  | 10 nM |
